Assay results from different studies.
Parts stem from different laboratories: compare values within a part only. Substitutions count along the parent as printed.

Block 1 — technique: DHFR PCA, deep sequencing; matrix: yeast; with: (+)-ABA 0.0091 µM; baseline: wild-type fitted maximum; direction: higher = stronger binding
Target: ABI1, truncated, D143A, DHFR fusion (Arabidopsis thaliana)
Setting: methotrexate growth selection, single substitutions
Starting sequence: PYL1, truncated, DHFR fusion (Arabidopsis thaliana); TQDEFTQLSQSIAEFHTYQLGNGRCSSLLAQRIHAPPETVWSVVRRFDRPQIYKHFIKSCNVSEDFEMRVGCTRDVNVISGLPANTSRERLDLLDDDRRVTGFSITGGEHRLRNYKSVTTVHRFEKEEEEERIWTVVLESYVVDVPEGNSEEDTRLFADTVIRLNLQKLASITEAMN; partner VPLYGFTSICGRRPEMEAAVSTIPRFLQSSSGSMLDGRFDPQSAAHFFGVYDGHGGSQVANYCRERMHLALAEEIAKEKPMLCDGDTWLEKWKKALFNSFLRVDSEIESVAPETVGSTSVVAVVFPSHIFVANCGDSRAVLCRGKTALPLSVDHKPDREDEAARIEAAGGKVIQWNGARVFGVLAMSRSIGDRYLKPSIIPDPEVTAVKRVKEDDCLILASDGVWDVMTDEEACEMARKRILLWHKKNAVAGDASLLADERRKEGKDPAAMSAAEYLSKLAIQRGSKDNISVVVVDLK
Substitution	relative binding score [%]
S171H	30.7
A13E	40
S87L	34.1
E129P	54.8
S63H	7.27
F66K	-11.8
G102F	-7.21
R163S	21.2
D96C	-5.34
L112D	-3.16
T101C	24.7
S80D	16.5

Block 2 — target: CCNB3, cyclin fold, Cln2 fusion (human); technique: yeast growth competition, sequencing; matrix: yeast; setting: weak parent motif; baseline: not given; direction: higher = stronger binding
Starting sequence: ORC1 docking peptide (human); PRARKRLELGNLG
Substitution	normalised enrichment score
K5H	0.132
G10K	0.55
R6D	0.0819
G10Y	1.05
R4D	0.231
K5E	0.234
G13S	0.419
L7I	0.165
K5A	-0.0529
R2F	0.0694
L9E	-0.169
N11W	0.2
R6C	0.275

Block 3 — technique: RNA Bind-n-Seq; molecule type: RNA; matrix: in vitro; tested at: not given; setting: RNA with constant flanks, ends assumed; baseline: input RNA pool; direction: higher = stronger binding
Target: RING finger protein unkempt homolog, zinc fingers 1-6, GST-SBP tag (UNK, Homo sapiens, UniProt Q9C0B0, residues 30-357)
Sequence of UniProt Q9C0B0 (30-357, looked up): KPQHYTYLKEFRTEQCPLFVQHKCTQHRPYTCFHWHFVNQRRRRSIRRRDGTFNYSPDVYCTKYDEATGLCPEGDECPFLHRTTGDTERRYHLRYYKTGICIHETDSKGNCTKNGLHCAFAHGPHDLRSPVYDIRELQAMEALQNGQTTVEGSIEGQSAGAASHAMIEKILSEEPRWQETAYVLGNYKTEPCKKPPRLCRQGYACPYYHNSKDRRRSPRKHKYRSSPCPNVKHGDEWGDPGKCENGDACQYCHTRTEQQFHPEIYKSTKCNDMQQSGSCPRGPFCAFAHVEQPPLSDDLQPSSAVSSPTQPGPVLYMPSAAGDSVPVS
Constant ends, left off below: GGGAGUUCUACAGUCCGACGAUC … CAACAGAGGAUUGAGCAUCA
Oligonucleotide	bound/input enrichment
GAGAAUCCAUAUGACCUUGAUGCUUGGAGCAUUCUCAUUCGAGAGGCACAGAAUCAACCUACCGACAAAGCACGGAAGACUUAUGAACGCCUUGUUGCCCAGUUCCCCAGUUCUGGCAGA	0.17 ratio
AAGAAAGAGCAUGCAGCUAUCAUUCUUUGGAACACUACAUCUUGGAAACAGGUGCAGAAUUCCGUUUUCCACAGUUUGACAGUCACGCAGAUGGCCUUCUCACCUAAUGAGAAGUUCUUA	0.143 ratio
UCUCGCUCUCCUUUUUUUUUUCUUUUUUUCUUUUUCUUUUUUUUUUCUUUUUUUAAAUACCCGCAACUUUCAUCCUUUGGAACUUGUGCUGAAAAAAGAAGAGUCAGCAAAUACUACUGA	0.713 ratio
ACCCGCUACACCCAGGGAACAGGUGGUGAUGAGGUUGAUGAUUCAGUGAGUGUAAAUGACACCGAUUUAAGCCUGUACAUCCCAAGAGAUGUAGAUGAAACAGGUAUUACUGUAGCCAGU	0.148 ratio
GCUGAACCUGAUAUUAUUGAACAACUGGUGGAAUUUGCUUAUACUGCUAGAAUUUCCGUGAACCGCAACAAUGUUCAGUCUUUGCUGGAUGCAGCAAACCAAUAUCAGAUUGAACCUGUG	0.26 ratio
UUAAUUAAAGAAACAAAGCUCUCCACUGAGCCAAGUCCAGAGUUCUCUAAUUAUUCAGAAACCGCAAAAUUUGAGAAGUCGGUGCCUGAUCACUGUGAGCUCGUGGAUGAUUCCUCACCC	0.146 ratio

Other studies, line by line
Molecule	target or system	assay	system	conditions	scale	quantity	value
CYC1 (Homo sapiens, UniProt P08574)	UQCRC1 (Homo sapiens, UniProt P31930)	cross-linking MS	cell fractions	with: DSSO	–	cross-linked residues	K325 to S205
PhoQ, residues 284 288 289 292 302 303 TYGVAM	PhoP, residues 12 14 15 18 19 NMSSL (Escherichia coli, UniProt P23836)	Sort-seq, refers to: YFP reporter	E. coli	PhoQ-PhoP variant library, with: 10 µM Mg2+	baseline: high Mg2+ state, higher = stronger signaling	fold induction	12.4
SAP18 (Homo sapiens, UniProt O00422)	PNN (Homo sapiens, UniProt Q9H307)	cross-linking MS	cell fractions	with: DSSO	–	cross-linked residues	K74 to K109
CHCHD6 (Homo sapiens, UniProt Q9BRQ6)	CHCHD3 (Homo sapiens, UniProt Q9NX63)	cross-linking MS	–	hits only	–	interaction screen	cross-linked
DNMT1 (Homo sapiens, UniProt P26358)	EMC1 (Homo sapiens, UniProt Q8N766)	cross-linking MS	cell fractions	with: DMTMM	–	cross-linked residues	K347 to E893

For quick reference, copied from above (block 1):
Substitution	relative binding score [%]
G102F	-7.21
R163S	21.2
D96C	-5.34
L112D	-3.16
T101C	24.7
